Experimental data pooled from the literature.
Every numbered part comes from another study and shows a few of its results, in no order. Changes are numbered by the printed parent chain.

Set 1 — method: protein binding microarray; form: double-stranded DNA, one strand shown; matrix: in vitro; tested at: not given; reference: not given; direction: higher = stronger binding
Target: Histone acetyltransferase KAT6A, both winged helices, GST fusion (KAT6A, Homo sapiens, UniProt Q92794, residues 1-181)
Setting: 8-mer, flanks averaged, mean of 2 arrays, mostly near background
Residues (chain): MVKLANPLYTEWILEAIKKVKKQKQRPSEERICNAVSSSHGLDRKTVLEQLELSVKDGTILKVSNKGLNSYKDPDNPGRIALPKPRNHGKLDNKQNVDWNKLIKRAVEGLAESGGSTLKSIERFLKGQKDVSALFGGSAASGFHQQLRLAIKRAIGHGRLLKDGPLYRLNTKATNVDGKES
Oligonucleotide	E-score
AAGATTCG	-0.0796
AGATTCCC	0.0542
AGCTGGTA	-0.16
GACATAAA	0.022
ACACCGAA	-0.0448
ATACGATG	-0.00358

Set 2 — method: RNA Bind-n-Seq; form: RNA; matrix: in vitro; tested at: 200 nM; setting: whole 134-nt RNA, ends assumed; added: 150 mM LiCl; reference: input library; direction: higher = stronger binding; library: 7-deaza-guanosine replaces G
Target: Fragile X messenger ribonucleoprotein 1, C-terminal low-complexity region (Fmr1, Mus musculus, UniProt P35922)
All sequences stand within: GGGAGUUCUACAGUCCGACGAUC … UGGAAUUCUCGGGUGUCAAGG
Oligonucleotide	log2 enrichment
UGGGAGGUGGAUUUUGUUUAUUUUUUUAGCUCAUUUCCAGGGGUGGGAAUUUUUUUUUAAUAUGUGUCAUGAAUAAAGUUGUUCUUGAAA	0.0773
UCAAGUCCUGUGCUACACAUCGUAUGUACCGAAUCGGGUGGGUUUGGGAAAGGGAAAGUAUUAUGUUACGCCGUUCGGAUCUGCACUUCC	-0.932
CACAGACAACACGCACCCACACAGACACAGAGGGAAGGGGUUGGGAUGGGGACAGGGUGCACAGGAGGGCGGGGUAGGACCCCAGCCCCU	0.0961
UAACUUUAGAGGAGGAUCUGAUGGAUAUGGCAGUGGACGUUGAUUUGGGGAUGGCUAUAAUGGGUAUGGAGGAGGACCUGGAGGUGGCAA	0.412
CCUGUGCUACACAUCGUAUGUACCGAAUCGGGUUUUUUGGGGUUUUUUGGGUUUUUUGGGGAAAGUAUUAUGUUACGCCGUUCGGAUCUG	-0.892
CCUCAAGUCCUGUGCUACACAUCGUAUGUACCGAAUCGGUGGUUUGGUUUGGAAAGUAUUAUGUUACGCCGUUCGGAUCUGCACUUCCAG	-0.886

Set 3 — target: CCNF, cyclin fold, Cln2 fusion (human); method: yeast growth competition, sequencing; matrix: yeast; setting: strong parent motif; reference: not given; direction: higher = stronger binding
Starting sequence: INSM1 docking peptide (human); PKAIRKLHFEDEV
Substitution	normalised enrichment score
PKAIRKLHFDDEV [E10D]	7.12
PCAIRKLHFEDEV [K2C]	7.39
PKAIRRLHFEDEV [K6R]	7.45
PKAIRKLHVEDEV [F9V]	0.908
PKCIRKLHFEDEV [A3C]	7.88
PKYIRKLHFEDEV [A3Y]	6.6

Mixed results
Substance	target	assay	test system	setting	scale	measurement	result
PhoQ, residues 284 288 289 292 302 303 SSCLAV	PhoP, residues 12 14 15 18 19 QWHVF (Escherichia coli, UniProt P23836)	Sort-seq, measured: YFP reporter	E. coli	PhoQ-PhoP variant library, added: 10 µM Mg2+	reference: high Mg2+ state, higher = stronger signaling	fold induction	17.4

Some of these lines once more (set 3):
Substitution	normalised enrichment score
PKAIRKLHVEDEV [F9V]	0.908
PCAIRKLHFEDEV [K2C]	7.39
PKYIRKLHFEDEV [A3Y]	6.6
